Results of several laboratories.
Parts stem from different laboratories: compare values within a part only.

Series 1 — technique: protein binding microarray; molecule type: double-stranded DNA, one strand shown; sample: in vitro; tested at: not given; baseline: not given; direction: higher = stronger binding
Target: Histone acetyltransferase KAT6A, winged helix 1, GST fusion (KAT6A, Homo sapiens, UniProt Q92794, residues 1-85)
Notes: 8-mer, flanks averaged, mean of 2 arrays, mostly near background
Construct (chain): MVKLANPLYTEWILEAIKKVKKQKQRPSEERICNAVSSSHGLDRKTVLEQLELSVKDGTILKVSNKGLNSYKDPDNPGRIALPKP
`ACGTTGCC` has an E-score of 0.0694.
For `AATGAAAA`, the E-score was -0.0989.
With `GCTCCTAA` the E-score was -0.0589.
`CCCCTCGA` has an E-score of -0.0593.
`CCGTGAAG` gave an E-score of 0.287.
The E-score of `ATTCGCTG` is reported as -0.0436.
For `CTAACAAG`, the E-score was -0.0821.
The E-score of `AATGTTCG` is reported as -0.0128.
The E-score of `TCAAGTAA` is reported as -0.142.
For `CAGGATCA`, the E-score was -0.147.
`AAATCCGC` has an E-score of 0.284.
For `CCCGATGA`, the E-score was 0.168.
For `ACGGATCA`, the E-score was 0.0712.
`CAATAACG` has an E-score of -0.0393.
`CTCCGAGC` has an E-score of 0.0521.
For `GCCTAGGA`, the E-score was -0.218.
`CTAAGCGC` has an E-score of 0.325.
With `ACTATGAA` the E-score was -0.0946.
`AAGCAGAC` has an E-score of -0.192.
`ACATGAAC` gave an E-score of 0.0181.
For `CTCTAAAG`, the E-score was -0.229.
`CCGGAGCA` has an E-score of 0.262.
`CAAATACA` gave an E-score of -0.282.
`CCGCCGCG` gave an E-score of 0.472.
`GGCAGCTA` gave an E-score of 0.0377.

Series 2 — technique: RNA Bind-n-Seq; molecule type: RNA; sample: in vitro; tested at: 365 nM; baseline: no-protein control; direction: higher = stronger binding
Target: RNA binding protein fox-1 homolog 2, RRM domain, GST-SBP tag (RBFOX2, Homo sapiens, UniProt O43251-10, residues 100-194)
Notes: natural RNA segment, single round, ends assumed
Residues (chain): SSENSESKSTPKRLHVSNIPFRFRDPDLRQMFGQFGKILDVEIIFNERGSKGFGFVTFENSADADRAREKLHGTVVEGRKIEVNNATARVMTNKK
`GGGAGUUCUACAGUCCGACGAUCUGAAAUUGCAAAACUCUUGUAGCUCAUUCUGAAAUCUUUCCCCUGUAGUCCAGAACUGGGGAGGCCAGGAGAGCCGUUACUCACUCCAUGGCUCUCAGACCGCGUUCCUCUGGAAUUCUCGGGUGCCAA` — result for “RBNS enrichment (R)”: 0.413.
For `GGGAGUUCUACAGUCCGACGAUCCAGGUUAUUAUUUGAAACUGUAUUACUCUACUCAGUAUUUUGGCCAGGUCCCAGUCCCGGGUUGCAGGUGUUGACUGCCACCAAGGUUUGAUACGGGAUCCAAAUUCAGGUGGAAUUCUCGGGUGCCAA`, “RBNS enrichment (R)” read 0.424.
`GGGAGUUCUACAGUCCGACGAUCUGUAGCACAAAGGGUGUUAUCUUCCUAUAGCAGAUCAACAGUGGCAGCUCACAGUACCAGCCAGCUUUAGACCUCCCAGUGCAAAGCCCAGCGCAGCACUAAGCCUUAAGUGGAAUUCUCGGGUGCCAA`: “RBNS enrichment (R)” 0.445.
For `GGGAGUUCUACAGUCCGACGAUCGGGGGAGAGGCAGACAUUGCUGCCCACAGACCUGCCUCUGACUCAACUGUGUCCACCCUCCCUGGUCCCUACCCCCAAGUCACAGGUGACUCAGCAGUGACCCUGUGUGCUGGAAUUCUCGGGUGCCAA`, “RBNS enrichment (R)” read 0.237.
Under “RBNS enrichment (R)”, `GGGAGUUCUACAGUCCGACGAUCACGAGGACAGGACCGUGAGAGUCCCCAUGAUGUCAGAUCCUAAGGCCAUCUUACGAUACGGCUUGGACUCUGAUCUCAACUGCAAGAUUGCCCAGCUGCCCUUGACAGGAUGGAAUUCUCGGGUGCCAA` is recorded as 1.12.
`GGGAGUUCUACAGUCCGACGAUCUCCUGUGUUUAGAUGCUUUAAUGUUCAUAAAGCCUGUCUUGUGACUGGACUGUCAGCUGUCCAACUGUCCCUGUUGUAAGUGCUAUUAACUAUCUCAGUUACCAGAAUCUUGGAAUUCUCGGGUGCCAA`: “RBNS enrichment (R)” 0.615.
Under “RBNS enrichment (R)”, `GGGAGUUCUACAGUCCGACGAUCAGAAAAACAUGAAGCUUGCCCCUCGAGGGAUCUACUCCUGUUUUUCCCGUCAUCUGUUGGCUUCAGGAGGACUGCCAUAAAGUCCCAUUGACAUUUACUCUUAUGUCUUUUGGAAUUCUCGGGUGCCAA` is recorded as 0.216.
For `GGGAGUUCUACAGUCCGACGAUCCAGAGAGCUGCACCCUGCACGGGGCACCGCACCGCUUCCCUCCGCGCAGCUCUUCUGCCUGGUUUUCGGAGGCCAGGCUGCUGGGAAGCUUCCGUGUUCCUGUCAGUCCUUGGAAUUCUCGGGUGCCAA`, “RBNS enrichment (R)” read 1.08.

Series 3 — technique: RNA Bind-n-Seq; molecule type: RNA; sample: in vitro; tested at: not given; baseline: input RNA pool; direction: higher = stronger binding
Target: RING finger protein unkempt homolog, zinc fingers 1-6, GST-SBP tag (UNK, Homo sapiens, UniProt Q9C0B0, residues 30-357)
Notes: RNA with constant flanks, human-mouse chimeric sites, ends assumed
Target sequence (chain): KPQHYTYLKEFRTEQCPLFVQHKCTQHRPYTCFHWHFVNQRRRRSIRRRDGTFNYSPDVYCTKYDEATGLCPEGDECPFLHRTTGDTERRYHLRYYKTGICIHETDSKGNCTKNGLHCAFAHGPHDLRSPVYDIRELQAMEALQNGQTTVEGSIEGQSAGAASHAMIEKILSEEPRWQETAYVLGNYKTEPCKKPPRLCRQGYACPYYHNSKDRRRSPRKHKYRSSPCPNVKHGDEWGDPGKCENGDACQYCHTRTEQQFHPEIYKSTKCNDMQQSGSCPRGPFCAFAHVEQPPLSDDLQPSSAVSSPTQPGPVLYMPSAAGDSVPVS
`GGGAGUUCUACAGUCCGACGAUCACCUCCCCCUCCCGCCUCACCCCACCCAAGAAAGAAAGAAAGUUUUUGGCGUUUCUUUUCCUUCCCCAUACAAAGUGAUUACAGUUUCCCCCGCAAGUGGGGCUUGAAGGGCUUGACGGACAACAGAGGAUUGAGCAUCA` gave a bound/input enrichment of 0.233 ratio.
`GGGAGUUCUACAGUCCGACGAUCAAUGUUCUUAAUAUUUUUGAAUAAAUGUAAAACCAUGGUCUGCUUUUGGUACAACACGCAUUAAUAAAAGGUUAAGUUUUGUUUUCCACUGAAGUACUAUUUAACAUCUCAGAAAAAAACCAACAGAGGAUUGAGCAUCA` has a bound/input enrichment of 0.147 ratio.
`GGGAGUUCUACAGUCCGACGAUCUUUCUAUUGCAGCAAACGAUGCUAAGAAUUAAGGAUCCUAAGAAGUCACUGGAUUUUUAUACGAGGGUUCUUGGACUGACCCUCCUGCAGAAGCUUGACUUCCCUGCUAUGAAGUUCUCGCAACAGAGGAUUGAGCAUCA` has a bound/input enrichment of 0.181 ratio.
With `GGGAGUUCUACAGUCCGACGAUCAGGAGGAGGUUAAAGGGUGAGAGUGGGGUGGAAGACUGUGUCAUGGCUCUGGAGACACUGUUCAGUGUUCUGCUUUCUCUGUGCAGACUGAUGGCCCCUUACACGCCCUUUCUGACUGAGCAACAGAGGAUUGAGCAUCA` the bound/input enrichment was 0.0732 ratio.
`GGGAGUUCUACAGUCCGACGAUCAAAGUGGACUAUGGCGAAUACAUGGAUAAAAACAAUGUGAGGCGGCAAGCAACAACAAUCAUAGCUGAUAACAUUAUAUUUCUGAGUGACCAGACAAAAGAAAAGGCGUAGAAAGGAUGACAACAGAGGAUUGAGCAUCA` gave a bound/input enrichment of 2.39 ratio.
The bound/input enrichment of `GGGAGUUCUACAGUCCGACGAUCGCUCCUCCCCGCUCUGCAGCCUGGGGACACUGGGCUGGGACCAGAAUCUUAUUUUUUUUUAAAACUCUCAGUGUAACUUCUUUUUCUGACAUUUCAUUUUUUUUAAAUAGUGUAUUUUUUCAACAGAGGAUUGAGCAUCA` is reported as 9.85 ratio.
For `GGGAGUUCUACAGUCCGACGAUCAAAGAAAAUGGAGAUGUAAAGAUUUUACUGAAAAGUGGGAAGGAGAAACCAAAAACAAAUAUAGAAGACUUACAAAUUAAAAAGGUAAAGAAGAAAAAGAAAAAGAAACACAAAGAGAAUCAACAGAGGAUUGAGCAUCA`, the bound/input enrichment was 16 ratio.
With `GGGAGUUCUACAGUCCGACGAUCACACAAUAUGAGACCAACAGCAUGGACUUCAAAGUUGGGGCGGAUGGGACAGUCUUCGCCACUAGGGAGCUGCAGGUCCCCUCCGAGCAGGUGGCGUUCACGGUGACUGCAUGGGACAGCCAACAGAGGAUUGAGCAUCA` the bound/input enrichment was 0.328 ratio.

Series 4 — technique: universal PBM; molecule type: double-stranded DNA, one strand shown; sample: in vitro; tested at: not given; direction: higher = stronger binding
Target: Sal-like protein 4, full length isoform B (SALL4, Homo sapiens, UniProt Q9UJQ4-2, residues 1-616)
Notes: 8-mer, flanks averaged, mean of replicates
The E-score of `CCAACGCA` is reported as -0.0442.
For `GTGGTAAA`, the E-score was -0.00287.
`ACTATAGC` has an E-score of 0.025.
The E-score of `TCTGCCCA` is reported as -0.182.
`ACCTGCTA` has an E-score of 0.0202.
`GTGACTGA` has an E-score of 0.025.
For `ACAACCGT`, the E-score was -0.0537.
`CACTTGCC` gave an E-score of -0.168.
With `AGCCAGCA` the E-score was -0.191.
For `AACGCGTC`, the E-score was -0.146.
With `CTTTATCA` the E-score was 0.241.
With `CCTTACCC` the E-score was -0.191.
The E-score of `AACCTCTC` is reported as -0.0427.
`ATTGAAAA` has an E-score of 0.375.
For `ATCCTATC`, the E-score was 0.179.
`AATTATGG` gave an E-score of 0.391.
`CCGTCTCA` has an E-score of -0.165.
For `AGCAATCA`, the E-score was 0.092.
For `CAGGTCGA`, the E-score was -0.179.
For `CAACTCTC`, the E-score was -0.105.
`CATCAGCC` gave an E-score of -0.0914.
For `ATGTAACG`, the E-score was 0.252.
`GAAAGTAC` has an E-score of 0.0596.
The E-score of `CCCTGTTC` is reported as -0.313.
The E-score of `CCACCGCC` is reported as -0.308.
